Measurements gathered from unrelated publications.
A part holds a random share of what one study measured. Positions count from the first letter of the parent shown.

Block 1
Target: Interferon regulatory factor 7, full length, phosphomimetic (IRF7, Homo sapiens, UniProt Q92985, residues 1-503, S101K/S471D/S472D/S475D/S476D/S477D/S483D/S484D/S487D)
Technique: protein-binding microarray
Form: double-stranded DNA, one strand shown
Sample: in vitro
Tested at: 250 nM
Setting: 60-bp whole probe
With: salmon DNA 0.4 mg/ml
Reference: random background probes
Reading: higher = stronger binding
Constant ends, left off below: GCCTAGCAC … GTCTTGATTCGCTTGACGCTGCTG
Target sequence (chain): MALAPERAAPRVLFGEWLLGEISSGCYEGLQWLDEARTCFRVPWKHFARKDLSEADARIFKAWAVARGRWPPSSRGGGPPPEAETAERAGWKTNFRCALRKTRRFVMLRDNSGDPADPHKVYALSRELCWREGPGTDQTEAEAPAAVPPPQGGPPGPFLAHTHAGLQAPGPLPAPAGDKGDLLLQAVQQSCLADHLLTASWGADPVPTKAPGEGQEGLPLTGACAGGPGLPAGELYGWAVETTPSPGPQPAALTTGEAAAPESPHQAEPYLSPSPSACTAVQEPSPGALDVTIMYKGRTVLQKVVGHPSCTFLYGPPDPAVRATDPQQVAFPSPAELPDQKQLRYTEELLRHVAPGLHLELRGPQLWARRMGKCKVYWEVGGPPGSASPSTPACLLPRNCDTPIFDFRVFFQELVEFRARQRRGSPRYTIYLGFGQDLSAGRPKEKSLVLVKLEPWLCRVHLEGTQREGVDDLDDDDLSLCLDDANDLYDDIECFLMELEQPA
Oligonucleotide	log fluorescence [z-score]
TTAGGTCTCCTTCGCCTTTAGTGCTAG	0.158
TTAGATTTCAGTATTGATTAGTGCTAG	0.376
GACAGACTGGGTATCGGGACGTGCTAG	-0.344
GACGGACAGGGTCTCGGGACGTGCTAG	-0.514
GACGGTCTCGGACTGGGAACGTGCTAG	-0.0407
TTCACTCTCTGCTTGTGTCTGTGCTAG	0.0425
GACGATACCAGTATCGAGACGTGCTAG	0.317
AACGGACTGGACTATCGGGACGTGCTA	-0.454
GACGAACTGGGTCTCGGGACGTGCTAG	-0.0758
GACGGTTCCGGTTACGGGACGTGCTAG	1.57
ATAGAACTGGGGTTTCGATTAGTGCTA	5.96
TTAGATCTCAGTTACGATTAGTGCTAG	0.788
TTAGAACTGAGTCACGATTAGTGCTAG	0.277
TGGGCATTTTTTTTATCAATGTGCTAG	-0.702
GACGGTTTCGACACTGGGTACGTGCTA	3.84
GACGGTTTCGACTTTAGGGACGTGCTA	9.71
TTAGGGCTCCTTTTCCTTTAGTGCTAG	1.46

Block 2
Target: RING finger protein unkempt homolog, zinc fingers 1-6, GST-SBP tag (UNK, Homo sapiens, UniProt Q9C0B0, residues 30-357)
Chain of UniProt Q9C0B0 (30-357, looked up): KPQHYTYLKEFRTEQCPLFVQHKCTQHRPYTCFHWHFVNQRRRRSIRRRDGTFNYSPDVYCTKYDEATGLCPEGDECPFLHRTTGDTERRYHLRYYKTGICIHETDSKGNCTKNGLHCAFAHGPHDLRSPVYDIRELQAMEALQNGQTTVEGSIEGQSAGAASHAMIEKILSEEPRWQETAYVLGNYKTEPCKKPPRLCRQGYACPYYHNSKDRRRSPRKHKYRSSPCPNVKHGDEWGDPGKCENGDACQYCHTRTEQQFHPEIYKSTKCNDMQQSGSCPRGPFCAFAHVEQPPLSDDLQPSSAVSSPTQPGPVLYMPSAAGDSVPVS
Technique: RNA Bind-n-Seq
Form: RNA
Sample: in vitro
Tested at: not given
Setting: RNA with constant flanks, ends assumed
Reference: input RNA pool
Reading: higher = stronger binding
Constant ends, left off below: GGGAGUUCUACAGUCCGACGAUC … CAACAGAGGAUUGAGCAUCA
Oligonucleotide	bound/input enrichment [ratio]
CUGCGAAGACAGCUGGCAGAACUCAACAAAAAUCCAGUGGAAGGCUUUUCAGCAGGUUUAACCGACGACAAUGAUCUCUAUCGUUGGGAAGUCCUUAUUAUUGGUCCUCCAGAUACACUU	0.109
UGAACACAUGACGUCAGAUCAAAGAAAACAGAUCUUCUCCAGAUUGGCAGAAAGUUGAUACCGGUGGACUUUUUUACAGGUCAGUUGAGGCAAAAAACUAUGGGUUUUUUCAGGUGAACC	0.302
CCCAAGGAGACUAAGGAGGACGGAAGAACAGGUGAGGCACAAGGACCCGUGUAAACUCAUCUCCGACCAUCCCAUUCUUGAGUGGCCAGCUCAGAGCUCAAGGCUGGAAGAAAAAGAGCC	0.109
UUGUAUUUUCUAUCCAAAGAAAUAUAUGUGAUUACCCCAGAGACCUUCUCUACCAUAUCAGCCGCCGGGUUGAUAGUCUAUGUGAUUAAGAAAUAUGGCGCCUCUUUUGGAGAAUUUAUU	0.876
UCCACACAGAAGCACAAUUUUGUCCUCUUCCAGACACUGUUGCCUCUACCUAGUUAGACAAACCGGAUUUGACCUACAUUCUGUUGCCCCUAGGUUUGUGUUAGUGUCAGAAAUACUUAA	1.18
UCCCUAAAGAUCAUCGGGAGACUUCAUUGGAUUGACAGAGAAAAGCUUCGAAGUUUCAUCUCCGCGUGUCAAGAUGAAGAGACGGGAGGAUUUGCAGACAGACCAGGAGAUAUGGUGGAU	0.207
ACUGAUUUAUAUGAUAUAAAACGUGCAGUGGUUCACACCCAUCUUCUUAACCCUGAGUGGUCCGUCAACUACUUUGGUUCCUUAUCAGUAGAAGACUCCCUAGAAUGUCUCAGAGCCAUG	0.254
UUAAUUUAUAUGAAGUUUGAUUUUUUAAAAAAUACCUGAAUUAUUAUUGCCUGCCCUGGCCCGUUUUAUAUCAACUUGAUACAAGCUAGAGUCAUUUGGGGAGAGGGACUCUGAAUUGAG	0.867

Block 3
Target: ABI1, truncated, D143A, DHFR fusion (Arabidopsis thaliana)
Technique: DHFR PCA, deep sequencing
Sample: yeast
Setting: methotrexate growth selection, single substitutions
With: (+)-ABA 0.032 µM
Reference: wild-type fitted maximum
Reading: higher = stronger binding
Starting sequence: PYL1, truncated, DHFR fusion (Arabidopsis thaliana); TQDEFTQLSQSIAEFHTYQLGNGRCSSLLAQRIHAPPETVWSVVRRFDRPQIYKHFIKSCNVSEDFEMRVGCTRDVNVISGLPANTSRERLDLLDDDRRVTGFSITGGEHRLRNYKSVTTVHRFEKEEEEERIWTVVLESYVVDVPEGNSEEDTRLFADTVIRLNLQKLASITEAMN; partner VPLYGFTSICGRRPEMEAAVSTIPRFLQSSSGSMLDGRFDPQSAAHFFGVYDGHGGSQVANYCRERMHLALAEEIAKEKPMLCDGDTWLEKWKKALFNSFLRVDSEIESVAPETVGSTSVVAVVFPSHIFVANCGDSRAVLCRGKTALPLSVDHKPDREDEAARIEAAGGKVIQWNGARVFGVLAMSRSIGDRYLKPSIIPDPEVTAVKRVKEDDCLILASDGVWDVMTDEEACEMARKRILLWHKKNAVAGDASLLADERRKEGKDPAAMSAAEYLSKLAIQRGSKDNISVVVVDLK
Change	relative binding score [%]
M176C	8.18
S26E	-7.19
P37H	-1.39
Y18I	-2.88
S59V	-0.337
D96K	6.06
H122C	-1.77
K116G	1.27
L166K	-1.3
E147T	9
D3G	3.65
E129C	30.5
Q31T	-4.26
G71S	-0.0475
I79T	26.3
V137N	-2.79
I133E	56.7
F5V	20.1
T173L	-3.53
V118P	1.33

Block 4
Target: NFIL3, bZIP domain (human)
Technique: DHFR protein complementation
Sample: yeast
Setting: single substitutions, most at no-binding floor
Reference: wild-type JUN-FOS pair
Reading: higher = stronger binding
Starting sequence: JUN, bZIP domain (human); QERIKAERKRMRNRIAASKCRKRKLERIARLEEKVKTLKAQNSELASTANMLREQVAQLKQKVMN; partner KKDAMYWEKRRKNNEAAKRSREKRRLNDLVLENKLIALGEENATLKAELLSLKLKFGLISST
Change	binding fitness
A40S	-1.33 natural log
S43V	-1.36 natural log
L45K	-1.44 natural log
L31S	-1.46 natural log
S43M	-1.31 natural log
N42T	-1.4 natural log
L31W	-1.28 natural log
A57E	-1.56 natural log
E54N	-1.46 natural log
E54Y	-1.44 natural log
L45F	-1.51 natural log
A49W	-1.5 natural log
K36C	-1.52 natural log
R53V	-1.52 natural log
L52A	-1.5 natural log
K39V	-1.47 natural log

Some of these lines once more (block 4):
Change	binding fitness
N42T	-1.4 natural log
L45K	-1.44 natural log
E54N	-1.46 natural log
L52A	-1.5 natural log
K39V	-1.47 natural log
A40S	-1.33 natural log
